# Experimental data collected from several papers.
# A part holds a random share of what one study measured.

# Series 1
# Target: Sal-like protein 4, full length isoform B (SALL4, Homo sapiens, UniProt Q9UJQ4-2, residues 1-616)
# Method: universal PBM
# Molecule type: double-stranded DNA, one strand shown
# Matrix: in vitro
# Concentration: not given
# Setting: 8-mer, flanks averaged, mean of replicates
# Reading: higher = stronger binding
Strand,E-score
AGCTTTAT,0.0708
AACTCCGC,-0.188
GCCACACC,-0.134
CTCTAAAG,-0.122
GTTCTGTA,0.0358
CGTCCTTC,0.0205
CGAGGTAG,-0.247
CCTCCTAA,-0.0211
GCCGCTCA,-0.248
TCACTGGA,-0.00487
CAATGTTA,0.238
AAGGTGAT,0.0513
GAAGCTCC,-0.287
CATGTGGG,-0.17
CAATACTA,0.191
AGGATAAT,0.215
AGGGAATG,0.0221
GTAGTACA,0.0717
CAAGATAA,0.22
AAGCACCT,-0.107
GTCGCGGA,-0.382
ATGCGTGC,0.0719
CAAAGCAA,0.0875
TAACTTAA,0.328
GATTGATA,0.266

# Series 2
# Target: Prothrombin, mature alpha-thrombin (F2, Homo sapiens, UniProt P00734)
# Method: aptamer microarray, sandwich
# Molecule type: DNA with 2'F-ANA
# Matrix: in vitro
# Concentration: 200 nM
# Setting: whole 15-mer aptamer, many near background
# Together with: Cy3 exosite-II aptamer, 400 nM
# Reading: higher = stronger binding
# Strand: GGTTGGTGTGGTTGG
Modification,mean fluorescence intensity
2'F-ANA at 2 3 5 6 10 11 13,47.2 a.u.
2'F-ANA at 1 4 5 9 10 12 13,44.9 a.u.
2'F-ANA at 3 5 6 9 10 13 15,52.9 a.u.
2'F-ANA at 1 2 3 5 9 10 14,45.9 a.u.
2'F-ANA at 2 4 7 8 12 13 14 15,145 a.u.
2'F-ANA at 1 3 4 6 7 10 11 12 14 15,53.4 a.u.
2'F-ANA at 1 2 6 8 13 14 15,72.9 a.u.
2'F-ANA at 4 5 6 7 9 11 13,55.6 a.u.
2'F-ANA at 2 3 4 6 8 10 14 15,148 a.u.
2'F-ANA at 2 3 5 6 7 8 11 15,85.9 a.u.
2'F-ANA at 1 2 4 5 6 7 8 10 11 14 15,57.6 a.u.
2'F-ANA at 1 3 4 6 7,206 a.u.
2'F-ANA at 3 4 7 9 10 11 12,392 a.u.
2'F-ANA at 1 3 5 6 7 8 9 10 12 14,43.5 a.u.
2'F-ANA at 2 3 5 7 8 9 12 13 14 15,58 a.u.
2'F-ANA at 5 7 9 11 14 15,47.9 a.u.
2'F-ANA at 1 2 3 6 7 10 14 15,60.8 a.u.
2'F-ANA at 2 3 5 6 9 10 15,53.5 a.u.
2'F-ANA at 1 2 5 7 8 12 14 15,62.2 a.u.
2'F-ANA at 1 3 4 6 7 9 14 15,60.5 a.u.

# Series 3
# Target: RNA binding protein fox-1 homolog 2, RRM domain, GST-SBP tag (RBFOX2, Homo sapiens, UniProt O43251-10, residues 100-194)
# Method: RNA Bind-n-Seq
# Molecule type: RNA
# Matrix: in vitro
# Concentration: 365 nM
# Setting: natural RNA segment, single round, ends assumed
# Relative to: no-protein control
# Reading: higher = stronger binding
# Constant ends, left off below: GGGAGUUCUACAGUCCGACGAUC … UGGAAUUCUCGGGUGCCAA
# Residues (chain): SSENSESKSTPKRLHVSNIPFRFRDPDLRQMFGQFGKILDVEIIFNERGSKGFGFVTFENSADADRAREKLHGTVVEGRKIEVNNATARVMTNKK
Strand,RBNS enrichment (R)
CAAAGUUCUCCCAGGCAAGGACCAGCUGCCCAUUCUGAGCCCAGGGCAGCCUCUUCAACCAUUAUUGGUCUAACCUGGCUUGUCAGGAAACCAAGCCCACCCUUCCACAU,0.393
ACAGAAAAGUGCAAAGUUAUUCCCCAUCUUCCAAGGGUUGAAUUCUGGAGGAAGAAGACACAUUCCUAGUUCCCCGUGAACUUCCUUUGACUUAUUGUCCCCACUAAAAC,0.404
UCAGCUUUGUGCAAUUUGCCUUUACCUCACCAAAAAUACCUACUUUAAUAUUUCCUCCUGUGUCCUCUGAAUGUCUGGGCGAGCUUUUGGUGAGAGGGCUGGUAUGUCAU,0.933
UGGACUGCAAGGGAGUGGGCGGAUCUUCCUCUUAAACAGUAUUCUUAGAGUAGGAUUGACCUCAUGGGCUGCUCUGCCCACUUGGUCAGGCUCUCCUGAGCAGGACUGCU,0.26
UAGGUAGAAAAACAUAUUCUUGUGCUUUUCCUGAUAAAGCACAGCUGUAGUGGGGUUCUAGGCAUCUCUGUACUUUGCUUGCUCAUAUGCAUGUAGUCACUUUAUAAGUC,5.8
GCCAUUAACCAAAGGACAGAUGUGUAUAUGUGUGUGUGUGUAUGUGUGUGUAUGUAUAUGAUACAUAAUAUCACACACACACAAAGUUCUUUUUAGCUAUUCCUACAUAC,0.472
CCACUGCCCAACCUUCUCCUGAUAACCAUGGCAUGCACCGUCUCCUCUCCCCUGCCCCUCUUCCCUGACCCCAGCUGGCUAGCACUGCAGAGUUUGGCUGCUGGCAGUGU,1.08
CACUUUUAGACAUCUUGUAAUGAAUAGGCCUUGUUGCUACUCUCAAAACAAAUCAAUCGGGAGGGGACCACUGAGAAAGAGGUAACAGUUAUUAAAGGAUGUUUUUGCAA,1.12

# Series 4
# Target: Interferon regulatory factor 5, full length, phosphomimetic (IRF5, Homo sapiens, UniProt Q13568-2, residues 1-514, S451D/S453D/S456D/S462D)
# Method: protein-binding microarray
# Molecule type: double-stranded DNA, one strand shown
# Matrix: in vitro
# Concentration: 940 nM top
# Setting: 60-bp whole probe
# Together with: salmon DNA 0.4 mg/ml
# Relative to: random background probes
# Reading: higher = stronger binding
# Constant ends, left off below: GCCTAGCAC … GTCTTGATTCGCTTGACGCTGCTG
Strand,fitted relative affinity [z-score]
TTAGATATCAGTATCCATTAGTGCTAG,0.408
GACGGACTGGAGACTGGGGACGTGCTA,-0.54
GACGGTTCCCTTTTGCTGACGTGCTAG,0.65
GACGAACTGGAGTTTCGAGACGTGCTA,1.94
GACGGACTGGACACTGGGGCCGTGCTA,-0.601
AATTAGGTTTCACTTTCCAAAGTGCTA,8.72
TTAGCTCTCGGTCTCGGTTAGTGCTAG,5.86
TTAGGACTGGACATTGGGTTAGTGCTA,-0.451
TGACAGCAGGAACATGGGCTGTGCTAG,-0.661
TTAGGATTGGACACTGGGTTAGTGCTA,-0.46
GACGGTTTCGGGACTAGGGACGTGCTA,6.34
GACGGTTTCGACTTACGGGACGTGCTA,7.91
CATGAATCAGGCATAGCATGGTGCTAG,-0.726
TTAGGTTTCGGTTTCGTTTAGTGCTAG,15.9
TCATCTTTATGTACTCTCACTGTGCTA,1.49
AGGGTCTTCAGGTTCTCCCCGTGCTAG,-0.0496
GACGGACTGGGTCTCGCGACGTGCTAG,-0.481
TTAGGTCTCGGTTTCGGTGAGTGCTAG,8.41
TCAACTCTGCCTCTAACACTGTGCTAG,0.571

# Excerpt of the above (series 1):
Strand,E-score
CAATGTTA,0.238
CATGTGGG,-0.17
GCCGCTCA,-0.248
GAAGCTCC,-0.287
AAGGTGAT,0.0513
CAAAGCAA,0.0875
AAGCACCT,-0.107
CAATACTA,0.191
GTCGCGGA,-0.382
ATGCGTGC,0.0719
GCCACACC,-0.134
